Results pooled from the literature.
Each numbered part is a random draw from the data of one study; scales do not carry over between parts. Changes are numbered by the printed parent chain.
UniProt Q9Y2X8, sequence (whole entry, looked up): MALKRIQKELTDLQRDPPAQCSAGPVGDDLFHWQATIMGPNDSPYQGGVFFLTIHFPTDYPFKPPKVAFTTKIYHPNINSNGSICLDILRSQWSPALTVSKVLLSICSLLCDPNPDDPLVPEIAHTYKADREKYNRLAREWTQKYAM

Block 1 — target: CCNB3, cyclin fold, Cln2 fusion (human); technique: yeast growth competition, sequencing; matrix: yeast; setting: weak parent motif; baseline: not given; reading: higher = stronger binding; starting sequence: viral docking peptide; PTARRRLLHDLDT
| Variant | normalised enrichment score |
| --- | --- |
| PTARAAAAHDLDT [R5A R6A L7A L8A] | 0.0448 |
| PTARRRLAHDLDT [L8A] | -0.24 |
| PTARRALLHDLDT [R6A] | 0.383 |
| PTARRRLLHDADT [L11A] | 0.0374 |
| PTARKRLFHDLDT [R5K L8F] | 0.624 |
| PTARKRLLHDLDT [R5K] | -0.191 |
| PTARRRLFHDLDT [L8F] | 1.72 |
| PTARRRALHDLDT [L7A] | -0.296 |
| PAARRRLLHDLDT [T2A] | -0.391 |
| PTARRRLLHDLDA [T13A] | 0.163 |

Block 2 — read-out: peptide-MHC binding; molecule type: peptide; tested at: concentration not given
Target: HLA class I histocompatibility antigen, A alpha chain, allele A*80:01 (Homo sapiens, UniProt P04439)
| Sequence | binding |
| --- | --- |
| EIKDRILSY | inactive |
| LTSSSKYTY | inactive |
| YYWPRPRRY | inactive |

Block 3 — technique: RNA Bind-n-Seq; molecule type: RNA; matrix: in vitro; tested at: 365 nM; baseline: no-protein control; reading: higher = stronger binding
Target: RNA binding protein fox-1 homolog 2, RRM domain, GST-SBP tag (RBFOX2, Homo sapiens, UniProt O43251-10, residues 100-194)
Setting: natural RNA segment, single round, ends assumed
Target sequence (chain): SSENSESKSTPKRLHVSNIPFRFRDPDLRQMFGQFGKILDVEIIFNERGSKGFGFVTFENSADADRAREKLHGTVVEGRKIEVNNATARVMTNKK
| Oligonucleotide | RBNS enrichment (R) |
| --- | --- |
| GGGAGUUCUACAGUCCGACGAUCGAGCGAGCGCCCUUUAGCGGCCUGCCACCACAGCACGCGGCCUCCUGAUCCGGAAGCACGCAGCAUGUUCCCUGCUGAGCGGAGGCAGCCCACCUGUCCUGCCUCCCAGGUGGAAUUCUCGGGUGCCAA | 13.9 |
| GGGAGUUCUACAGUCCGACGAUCAGUCUUAUGGAUACGAAGGGUACAUUUUUCAUAAUGAUUCCUUUAUAUUUUCACUUUGUGUCAUUGCAGAAUUUUAGACUCUCAUUCACAAUGAAAAGUUUAUUUUAAACUGGAAUUCUCGGGUGCCAA | 0.472 |
| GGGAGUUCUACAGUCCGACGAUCGGAUUCUGUAGUGCUGAUAGAAAACCUGAAGAAAGCAGCUCCUUGAUGGGGAGAAGUGAUUUCUUUCUUGCCUUCAAUGUGACCCUGUGAAGAUUUAUUGCAUUCUCCAUUGGAAUUCUCGGGUGCCAA | 0.3 |
| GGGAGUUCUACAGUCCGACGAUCAGAGCCCAGAAAGAUUUUAGGACCCAGGAGGUGCUUUUCCUCCAGCUGUUGCCAGUGUCCUUCUGAGCCUGGAUUCUCCGGGGAUUUCCGUCGUGGUGGAUGGACUUCACUGGAAUUCUCGGGUGCCAA | 0.318 |
| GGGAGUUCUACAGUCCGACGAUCCCUCAUUCGGGCAGAGGGAAAUACGGGACCCGGUCUCUGCCUCCUGGCUGCCCUCCUCCCUGGCUGUGUAAAUAGUCUCCCUAUCCCACGAGGGGGCUUUGAUGGCCCUGUGGAAUUCUCGGGUGCCAA | 0.406 |
| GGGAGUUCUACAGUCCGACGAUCUCCCCAGUGAAUUCCCAACACCUUGACUUCCUCAUUUCAGUGCUAAUAACCUGUUUUGUGUGCAGUUAAUCCAUUCUGAAGCAGGUGAAAGGUCAGUAUUUUAGCAUUUUUGGAAUUCUCGGGUGCCAA | 0.664 |
| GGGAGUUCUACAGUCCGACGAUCCUAGUUCCCUUUGGUGAAGGGAAAAAUGAUGAUUUUGCAAGACCUAGAUUUUGGCUUGGUUUCUUGCCUCCUUUUUUGGCAGCCUUCAUCUUCUCAUCUCCCAAACCCCCUGGAAUUCUCGGGUGCCAA | 0.362 |
| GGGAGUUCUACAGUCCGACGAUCUCGUUAAGCUGAACCAGUGUCUUUACAUUUCAUUUGUACUUCAAAAAAUAUGCUAUUGUUUAGACUUUCCAUCCUUUUUUUUUUUAUUUUGAGGAAAAGUCAAAUUCAUUUGGAAUUCUCGGGUGCCAA | 1.09 |

Other studies, line by line
B1: UBE4A RING domain (UniProt Q14139); chain LQQQEEETYADACDEFLDPIMSTLMCDPVVLPSSRVTVDRSTIARHLLSDQTDPFNRSPLTMDQIRPNTELKEKIQRWLAERKQQKEQLE
| Sequence | target | test | system | conditions | scale | quantity | result |
| --- | --- | --- | --- | --- | --- | --- | --- |
| B1 (UBE4A RING domain) | UBE2D4 UBC core domain (UniProt Q9Y2X8) | yeast two-hybrid | yeast | mostly zero background | baseline: not given, higher = stronger interaction | lacZ reporter activity | 2100 |

Excerpt of the above (block 3):
| Oligonucleotide | RBNS enrichment (R) |
| --- | --- |
| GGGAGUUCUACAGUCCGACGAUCCUAGUUCCCUUUGGUGAAGGGAAAAAUGAUGAUUUUGCAAGACCUAGAUUUUGGCUUGGUUUCUUGCCUCCUUUUUUGGCAGCCUUCAUCUUCUCAUCUCCCAAACCCCCUGGAAUUCUCGGGUGCCAA | 0.362 |
| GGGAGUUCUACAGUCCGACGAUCUCGUUAAGCUGAACCAGUGUCUUUACAUUUCAUUUGUACUUCAAAAAAUAUGCUAUUGUUUAGACUUUCCAUCCUUUUUUUUUUUAUUUUGAGGAAAAGUCAAAUUCAUUUGGAAUUCUCGGGUGCCAA | 1.09 |
